{"data": "Results collected from several papers", "note": "Numbers after ± are the reported error."}
{"SMILES": "NS(=O)(=O)OC[C@@H]1C[C@@H](n2ccc3c(N[C@H]4CCc5ccccc54)ncnc32)C[C@@H]1O", "test system": "human", "conditions": "intravenous, 8 mg/m^2 single dose, day 8, together with: itraconazole", "clearance": "387 mL/min"}
{"SMILES": "CC(=O)O[C@H]1C(=O)[C@@]2(C)[C@H]([C@H](OC(=O)c3ccccc3)[C@]3(O)C[C@H](OC(=O)[C@H](O)[C@@H](NC(=O)c4ccccc4)c4ccccc4)C(C)=C1C3(C)C)[C@]1(OC(C)=O)CO[C@@H]1C[C@@H]2O", "test system": "human, plasma", "conditions": "intravenous, 175 mg/m², cycle 1, no ritonavir, together with: carboplatin", "clearance": "9.8 ± 3 L/h/m²"}
{"SMILES": "NC(=S)NN=Cc1ncccc1N", "test system": "human, plasma", "conditions": "intravenous, 75 mg, steady state", "clearance": "420 ± 66.8 mL/min"}
{"SMILES": "Cc1ccc(NC(=O)c2ccc(CN3CCNCC3)cc2)cc1Nc1nccc(-c2cccnc2)n1", "test system": "human patients", "conditions": "oral, 400 mg/day of imatinib, day 14 of cycle 1, together with: IL-2 6 MIU/day days 10-14", "clearance": "248 mL/min"}
{"SMILES": "CNCc1ccc(-c2[nH]c3cc(F)cc4c3c2CCNC4=O)cc1", "test system": "human cancer patients, plasma", "conditions": "intravenous, 8 mg/m2, day 1, together with: temozolomide 100", "clearance": "250 mL/min"}
{"SMILES": "O=C(/C=C/c1cccc(S(=O)(=O)Nc2ccccc2)c1)NO", "test system": "human moderate liver dysfunction, plasma", "conditions": "intravenous, 400 mg/m^2, 30 min infusion, cycle 1 day -7", "clearance": "505 mL/min/m²"}
{"SMILES": "C/C(=C\\c1csc(C)n1)[C@@H]1C[C@@H]2O[C@]2(C)CCC[C@H](C)[C@H](O)[C@@H](C)C(=O)C(C)(C)[C@@H](O)CC(=O)N1", "test": "LC-MS/MS", "test system": "human, plasma", "conditions": "intravenous infusion, 70 mg, 3 h infusion", "clearance": "468 mL/min"}
{"SMILES": "CC(C)C[C@H](NC(=O)[C@H](CCc1ccccc1)NC(=O)CN1CCOCC1)C(=O)N[C@@H](Cc1ccccc1)C(=O)N[C@@H](CC(C)C)C(=O)[C@@]1(C)CO1", "test system": "human patients, plasma", "conditions": "intravenous infusion 10 min, 20 mg/m^2, day 1 of cycle 1, KRd regimen", "clearance": "1700 ± 455 mL/min"}
